Measurements of several laboratories.
“And” joins repeats or separate records; there may be more than shown.

SMILES	test system	setting	Stokes shift
CCn1cc(/C=C/c2sc3ccccc3[n+]2CC)c2ccccc21	PBS	–	74 nm and > 70 nm
NCCC(=O)N1Cc2ccccc2-c2c(nnn2-c2nc(N)c3ncn(C4OC(CO)C(O)C4O)c3n2)-c2ccccc21 (mixture of isomers)	methanol	–	133 nm
CC1(C)C(=CC=C(C=CC2=[N+](CCC[N+](C)(C)C)c3ccc(S(=O)(=O)[O-])cc3C2(C)C)Oc2ccc(CCC(=O)[O-])cc2)N(CCC[N+](C)(C)C)c2ccc(S(=O)(=O)[O-])cc21	100% serum	pH 7.4	19 nm
Nc1nc(-n2nnc3c2CCC2C(CO)C2CC3)nc2c1ncn2C1OC(CO)C(O)C1O (mixture of isomers)	methanol	–	66 nm
COCCOCCOCCOc1ccc(/C=C/c2c(I)c(C)c3n2[B-](F)(F)[N+]2=C(C)C(I)=C(C)C2=C3c2cc(OC)cc(OC)c2)cc1	THF	–	383 cm⁻¹
COC(=O)c1ccccc1-c1c2ccc(=[N+](C)C)cc-2oc2c1ccc1cccc(N)c12	phosphate buffer 10% DMSO	pH 7.4	172 nm
CCn1cc(/C=C/c2ccc3ccccc3[n+]2CC)c2ccccc21	DMSO	–	77 nm
COc1cc(OC)cc(C2=C3C(C)=C(I)C(/C=C/c4c[nH]c5ccc([N+](=O)[O-])cc45)=[N+]3[B-](F)(F)n3c(/C=C/c4c[nH]c5ccc([N+](=O)[O-])cc45)c(I)c(C)c32)c1	DMSO	–	676 cm⁻¹
COC(=O)c1ccccc1-c1c2ccc(=N)cc-2oc2c1ccc1cccc(OC)c12	phosphate buffer 10% DMSO	pH 7.4	58 nm
COc1cc(OC)cc(C2=C3C(C)=C(I)C(/C=C/c4cccs4)=[N+]3[B-](F)(F)n3c(/C=C/c4cccs4)c(I)c(C)c32)c1	dichloromethane	–	263 cm⁻¹
CC[N+]1=C(C=CC=CC=C2N(CCCCCC(=O)O)c3ccc4c(S(=O)(=O)[O-])cc(S(=O)(=O)[O-])cc4c3C2(C)C)C(C)(C)c2c1ccc1c(S(=O)(=O)[O-])cc(S(=O)(=O)[O-])cc21.[K+].[K+].[K+]	100% serum	pH 7.4	13 nm
COc1cc(OC)cc(C2=C3C(C)=C(I)C(C)=[N+]3[B-](F)(F)n3c(/C=C/c4c[nH]c5ccccc45)c(I)c(C)c32)c1	dichloromethane	–	1050 cm⁻¹
NCCC(=O)N1Cc2ccccc2-c2c(nnn2-c2cn(C3OC(CO)C(O)C3O)c(=O)[nH]c2=O)-c2ccccc21 (mixture of isomers)	methanol	–	49 nm

Excerpt of the above:
SMILES	test system	setting	Stokes shift
Nc1nc(-n2nnc3c2CCC2C(CO)C2CC3)nc2c1ncn2C1OC(CO)C(O)C1O (mixture of isomers)	methanol	–	66 nm
